Results from different studies.
Compare with care: the assays were run in different laboratories.
Sequence of UniProt P41145 (whole entry, looked up): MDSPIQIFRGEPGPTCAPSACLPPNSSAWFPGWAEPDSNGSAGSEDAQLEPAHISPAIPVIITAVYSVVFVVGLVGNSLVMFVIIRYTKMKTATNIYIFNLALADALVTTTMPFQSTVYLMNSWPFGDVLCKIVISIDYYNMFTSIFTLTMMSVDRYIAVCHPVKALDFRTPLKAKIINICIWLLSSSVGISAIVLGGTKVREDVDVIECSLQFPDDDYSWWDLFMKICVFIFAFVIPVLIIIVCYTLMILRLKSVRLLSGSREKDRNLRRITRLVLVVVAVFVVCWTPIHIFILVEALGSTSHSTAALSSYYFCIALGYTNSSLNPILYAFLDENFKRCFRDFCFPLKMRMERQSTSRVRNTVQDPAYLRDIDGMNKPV
Sequence of UniProt Q86U86 (whole entry, unmodified, looked up): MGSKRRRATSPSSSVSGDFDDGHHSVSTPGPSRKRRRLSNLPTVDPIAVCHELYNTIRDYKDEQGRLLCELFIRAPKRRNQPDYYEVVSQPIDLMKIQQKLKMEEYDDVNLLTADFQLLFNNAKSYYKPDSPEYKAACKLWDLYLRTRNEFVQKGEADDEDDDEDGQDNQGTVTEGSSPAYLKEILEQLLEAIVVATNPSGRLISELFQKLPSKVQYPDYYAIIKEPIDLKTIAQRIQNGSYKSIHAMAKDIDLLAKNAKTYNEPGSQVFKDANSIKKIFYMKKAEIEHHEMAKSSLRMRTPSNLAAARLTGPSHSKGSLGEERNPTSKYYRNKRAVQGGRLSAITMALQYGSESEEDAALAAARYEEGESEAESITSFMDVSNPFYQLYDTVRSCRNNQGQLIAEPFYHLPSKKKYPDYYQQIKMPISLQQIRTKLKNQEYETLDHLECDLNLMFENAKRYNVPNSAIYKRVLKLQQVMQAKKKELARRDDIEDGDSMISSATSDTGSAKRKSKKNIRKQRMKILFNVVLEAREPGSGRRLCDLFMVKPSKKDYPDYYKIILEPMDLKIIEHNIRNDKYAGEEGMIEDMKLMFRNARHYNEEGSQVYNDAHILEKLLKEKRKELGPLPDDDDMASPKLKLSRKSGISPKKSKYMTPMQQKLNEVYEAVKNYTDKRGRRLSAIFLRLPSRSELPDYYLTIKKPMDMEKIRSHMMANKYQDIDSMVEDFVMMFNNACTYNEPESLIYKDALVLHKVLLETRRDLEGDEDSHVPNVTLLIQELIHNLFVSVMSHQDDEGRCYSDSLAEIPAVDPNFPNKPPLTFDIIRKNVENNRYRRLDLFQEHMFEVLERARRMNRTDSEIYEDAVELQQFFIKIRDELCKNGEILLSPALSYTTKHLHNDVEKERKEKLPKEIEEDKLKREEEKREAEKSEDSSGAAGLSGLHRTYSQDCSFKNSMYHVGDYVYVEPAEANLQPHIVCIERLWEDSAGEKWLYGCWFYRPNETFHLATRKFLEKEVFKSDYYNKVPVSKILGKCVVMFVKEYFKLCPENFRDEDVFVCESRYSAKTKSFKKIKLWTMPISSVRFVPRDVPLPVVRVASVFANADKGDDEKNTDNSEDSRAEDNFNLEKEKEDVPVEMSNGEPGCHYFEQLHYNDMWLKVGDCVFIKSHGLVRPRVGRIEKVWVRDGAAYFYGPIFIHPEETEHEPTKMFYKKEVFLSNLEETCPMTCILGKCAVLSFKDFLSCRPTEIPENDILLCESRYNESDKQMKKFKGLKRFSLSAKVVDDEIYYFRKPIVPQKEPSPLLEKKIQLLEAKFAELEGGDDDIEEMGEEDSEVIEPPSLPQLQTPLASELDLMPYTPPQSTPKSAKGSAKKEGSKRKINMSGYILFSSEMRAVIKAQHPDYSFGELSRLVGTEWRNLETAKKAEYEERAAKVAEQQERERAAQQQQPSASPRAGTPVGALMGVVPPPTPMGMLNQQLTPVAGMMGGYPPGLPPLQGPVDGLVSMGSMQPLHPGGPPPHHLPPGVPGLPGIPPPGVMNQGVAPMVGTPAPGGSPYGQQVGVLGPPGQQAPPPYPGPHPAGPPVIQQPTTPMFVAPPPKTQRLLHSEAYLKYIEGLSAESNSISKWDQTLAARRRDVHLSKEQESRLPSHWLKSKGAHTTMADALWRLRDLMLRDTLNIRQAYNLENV
Sequence of UniProt O75914 (whole entry, looked up): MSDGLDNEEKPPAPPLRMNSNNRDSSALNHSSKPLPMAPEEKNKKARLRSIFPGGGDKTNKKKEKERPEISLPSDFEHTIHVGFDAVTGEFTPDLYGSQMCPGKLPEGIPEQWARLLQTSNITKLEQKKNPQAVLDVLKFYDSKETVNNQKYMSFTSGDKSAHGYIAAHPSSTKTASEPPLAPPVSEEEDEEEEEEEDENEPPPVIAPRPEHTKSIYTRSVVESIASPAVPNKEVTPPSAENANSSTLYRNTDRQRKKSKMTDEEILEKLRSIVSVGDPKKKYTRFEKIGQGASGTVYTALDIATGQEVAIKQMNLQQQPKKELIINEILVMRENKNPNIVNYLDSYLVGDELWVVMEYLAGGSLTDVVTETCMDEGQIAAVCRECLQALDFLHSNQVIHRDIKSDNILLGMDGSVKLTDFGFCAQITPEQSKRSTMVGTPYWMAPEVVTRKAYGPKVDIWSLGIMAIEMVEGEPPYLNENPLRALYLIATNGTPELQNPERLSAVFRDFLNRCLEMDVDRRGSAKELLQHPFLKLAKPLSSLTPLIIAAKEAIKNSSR
Sequence of UniProt O60741 (whole entry, looked up): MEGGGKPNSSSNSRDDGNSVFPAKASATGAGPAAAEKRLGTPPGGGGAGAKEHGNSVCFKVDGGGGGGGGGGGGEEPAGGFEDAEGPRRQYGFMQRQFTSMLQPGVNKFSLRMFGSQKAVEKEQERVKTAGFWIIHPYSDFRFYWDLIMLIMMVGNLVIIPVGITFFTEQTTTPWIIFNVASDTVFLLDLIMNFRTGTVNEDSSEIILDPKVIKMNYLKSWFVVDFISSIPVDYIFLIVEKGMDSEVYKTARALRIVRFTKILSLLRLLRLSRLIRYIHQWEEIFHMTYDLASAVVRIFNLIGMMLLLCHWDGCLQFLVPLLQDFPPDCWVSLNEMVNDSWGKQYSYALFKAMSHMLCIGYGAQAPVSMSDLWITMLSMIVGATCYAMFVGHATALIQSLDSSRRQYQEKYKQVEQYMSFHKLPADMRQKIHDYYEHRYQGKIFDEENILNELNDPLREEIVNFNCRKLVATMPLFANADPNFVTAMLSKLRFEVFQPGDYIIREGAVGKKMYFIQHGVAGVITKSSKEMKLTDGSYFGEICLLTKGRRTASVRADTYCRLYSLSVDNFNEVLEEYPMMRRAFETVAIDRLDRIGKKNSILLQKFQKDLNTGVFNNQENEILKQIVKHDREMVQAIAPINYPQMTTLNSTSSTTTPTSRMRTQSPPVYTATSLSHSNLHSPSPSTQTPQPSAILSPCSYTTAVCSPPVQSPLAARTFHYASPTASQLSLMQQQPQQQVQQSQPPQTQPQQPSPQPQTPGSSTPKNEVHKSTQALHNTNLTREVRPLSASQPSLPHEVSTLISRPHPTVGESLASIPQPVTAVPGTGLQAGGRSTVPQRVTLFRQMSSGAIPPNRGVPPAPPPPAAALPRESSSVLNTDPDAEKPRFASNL
Sequence of UniProt Q09013 (whole entry, looked up): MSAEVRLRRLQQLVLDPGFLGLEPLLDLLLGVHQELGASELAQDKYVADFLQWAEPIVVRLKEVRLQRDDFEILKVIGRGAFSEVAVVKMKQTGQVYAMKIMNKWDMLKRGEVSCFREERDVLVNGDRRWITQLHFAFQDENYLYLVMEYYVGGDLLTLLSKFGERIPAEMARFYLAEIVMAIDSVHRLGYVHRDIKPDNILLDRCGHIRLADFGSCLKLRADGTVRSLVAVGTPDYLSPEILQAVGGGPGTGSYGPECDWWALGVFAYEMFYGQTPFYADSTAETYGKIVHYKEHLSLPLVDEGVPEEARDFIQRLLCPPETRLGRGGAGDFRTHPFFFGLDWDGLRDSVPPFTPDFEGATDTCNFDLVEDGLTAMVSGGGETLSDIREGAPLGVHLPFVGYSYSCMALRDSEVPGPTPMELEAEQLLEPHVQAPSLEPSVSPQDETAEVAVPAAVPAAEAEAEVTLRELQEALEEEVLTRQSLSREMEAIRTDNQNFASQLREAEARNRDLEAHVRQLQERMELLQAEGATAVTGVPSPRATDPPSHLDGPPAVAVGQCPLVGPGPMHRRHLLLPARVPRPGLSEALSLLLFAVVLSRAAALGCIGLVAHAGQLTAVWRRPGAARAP
Sequence of UniProt P08913 (whole entry, looked up): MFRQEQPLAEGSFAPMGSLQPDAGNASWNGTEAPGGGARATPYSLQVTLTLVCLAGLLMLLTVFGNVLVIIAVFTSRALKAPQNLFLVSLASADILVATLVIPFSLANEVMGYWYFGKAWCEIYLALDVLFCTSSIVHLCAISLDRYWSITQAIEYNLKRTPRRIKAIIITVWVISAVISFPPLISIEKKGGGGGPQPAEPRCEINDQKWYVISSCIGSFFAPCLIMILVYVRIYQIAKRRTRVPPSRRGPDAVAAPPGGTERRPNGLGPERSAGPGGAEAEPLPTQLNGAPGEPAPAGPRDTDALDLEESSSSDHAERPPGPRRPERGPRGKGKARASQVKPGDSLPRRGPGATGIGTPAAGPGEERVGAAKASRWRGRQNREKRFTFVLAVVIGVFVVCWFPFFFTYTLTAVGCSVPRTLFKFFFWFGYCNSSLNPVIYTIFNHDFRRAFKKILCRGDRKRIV

With c1cncc([C@@H]2CCCN2)c1 the inhibition was 4.8% (ADRA2A (Homo sapiens, UniProt P08913); ligand displacement; 50 µM).
With COc1ncccc1-c1cnn2ccc(N3CCN(C(=O)OC(C)C)CC3)nc12 the remaining binding was 100% (PAK3 (Homo sapiens, UniProt O75914); binding, competition with immobilised ligand; 1 µM).
[2H]c1c([2H])c([C@]2([2H])CCCN2C(=O)C(C)(C)Oc2ccc3cn[nH]c3c2)c([2H])c([2H])c1C([2H])([2H])[2H] has a remaining binding of 69% (DMPK (Homo sapiens, UniProt Q09013); binding, competition with immobilised ligand; 1 µM).
Nc1c(Br)cc(Br)cc1CN[C@H]1CC[C@H](O)CC1 has an inhibition of -0.961% (Potassium/sodium hyperpolarization-activated cyclic nucleotide-gated channel 1 (Homo sapiens, UniProt O60741); ion current, inhibitor; 3 µM).
For CC(C)CC(=O)OC[C@H]1O[C@@](C#N)(c2ccc3c(N)ncnn23)[C@H](O)[C@@H]1O, the inhibition was 18% (OPRK1 (Homo sapiens, UniProt P41145); cell-free assay; 20 µM).
CCN(CC)CCCC[C@H](NC(=O)[C@H](CC(C)C)NC(=O)[C@H](C)NC(=O)[C@H](Cc1ccccc1)NC(=O)c1ccc(C(C)(C)C)cc1)C(=O)N[C@@H](CO)C(=O)OC gave a ΔTm of -0.03 °C (Protein polybromo-1, BD1 (PBRM1, Homo sapiens, UniProt Q86U86); thermal stability, DSF; 25 µM).
With Cc1nn(C)cc1-c1nc2c(N3CCN(Cc4ccc(Cl)cc4)CC3)c(Cl)cnc2[nH]1 the remaining binding was 5.6% (FLT3 (Homo sapiens, UniProt P36888, D835Y); binding, competition with immobilised ligand; 1 µM).
Nc1ncc(-c2nc(N3CCOCC3)nc(N3CCOCC3)n2)c(C(F)F)n1 has a remaining binding of 55% (FLT3 (Homo sapiens, UniProt P36888, D835H); binding, competition with immobilised ligand; 10 µM).

Excerpt of the above:
Nc1ncc(-c2nc(N3CCOCC3)nc(N3CCOCC3)n2)c(C(F)F)n1 has a remaining binding of 55% (FLT3 (Homo sapiens, UniProt P36888, D835H); binding, competition with immobilised ligand; 10 µM).
